Assay results pooled from the literature.
Each numbered part is a random draw from the data of one study; scales do not carry over between parts.
Sequence of UniProt P22607 (whole entry, looked up): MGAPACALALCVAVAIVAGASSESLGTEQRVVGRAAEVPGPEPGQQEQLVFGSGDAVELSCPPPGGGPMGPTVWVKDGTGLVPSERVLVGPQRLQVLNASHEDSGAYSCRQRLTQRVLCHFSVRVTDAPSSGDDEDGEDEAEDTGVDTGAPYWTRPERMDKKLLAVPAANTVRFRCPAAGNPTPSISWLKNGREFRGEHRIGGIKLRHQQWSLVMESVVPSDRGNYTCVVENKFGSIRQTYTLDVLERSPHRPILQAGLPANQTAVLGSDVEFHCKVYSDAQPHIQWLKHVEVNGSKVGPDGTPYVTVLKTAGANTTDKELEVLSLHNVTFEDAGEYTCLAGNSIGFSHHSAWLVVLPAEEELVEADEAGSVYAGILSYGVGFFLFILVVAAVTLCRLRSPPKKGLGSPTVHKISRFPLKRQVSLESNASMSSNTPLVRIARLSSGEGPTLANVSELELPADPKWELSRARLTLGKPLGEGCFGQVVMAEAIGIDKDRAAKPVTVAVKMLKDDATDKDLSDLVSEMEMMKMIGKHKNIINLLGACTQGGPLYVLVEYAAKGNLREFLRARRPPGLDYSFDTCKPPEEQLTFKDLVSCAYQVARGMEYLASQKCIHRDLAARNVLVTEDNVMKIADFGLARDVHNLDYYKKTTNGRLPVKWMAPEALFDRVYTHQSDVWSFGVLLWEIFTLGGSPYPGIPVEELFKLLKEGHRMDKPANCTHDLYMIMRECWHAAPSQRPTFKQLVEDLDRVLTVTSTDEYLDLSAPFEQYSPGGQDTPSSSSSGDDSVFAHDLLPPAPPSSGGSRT
Sequence of UniProt Q6P5Z2 (whole entry, looked up): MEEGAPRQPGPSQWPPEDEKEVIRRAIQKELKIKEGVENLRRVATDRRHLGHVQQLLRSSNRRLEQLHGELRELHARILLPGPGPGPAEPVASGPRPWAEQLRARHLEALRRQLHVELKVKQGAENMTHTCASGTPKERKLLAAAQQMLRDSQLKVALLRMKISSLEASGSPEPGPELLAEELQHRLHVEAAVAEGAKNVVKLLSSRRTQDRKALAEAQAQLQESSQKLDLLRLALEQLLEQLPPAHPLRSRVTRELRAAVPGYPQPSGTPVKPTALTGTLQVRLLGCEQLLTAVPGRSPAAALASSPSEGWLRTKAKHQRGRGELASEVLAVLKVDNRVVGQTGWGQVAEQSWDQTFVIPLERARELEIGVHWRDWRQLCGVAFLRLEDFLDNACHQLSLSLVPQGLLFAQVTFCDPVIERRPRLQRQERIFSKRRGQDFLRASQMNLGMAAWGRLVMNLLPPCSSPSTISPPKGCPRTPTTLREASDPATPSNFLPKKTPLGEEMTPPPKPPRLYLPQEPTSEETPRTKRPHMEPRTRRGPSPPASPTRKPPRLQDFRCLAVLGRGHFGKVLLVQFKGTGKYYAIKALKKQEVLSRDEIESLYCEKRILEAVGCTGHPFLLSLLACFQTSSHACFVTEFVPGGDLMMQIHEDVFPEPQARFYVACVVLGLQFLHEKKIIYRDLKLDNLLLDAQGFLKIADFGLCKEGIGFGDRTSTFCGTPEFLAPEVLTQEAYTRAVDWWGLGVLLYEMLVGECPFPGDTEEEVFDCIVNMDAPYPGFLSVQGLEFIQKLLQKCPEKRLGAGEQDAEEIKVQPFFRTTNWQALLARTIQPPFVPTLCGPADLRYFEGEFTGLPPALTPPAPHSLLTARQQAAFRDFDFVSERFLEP
Sequence of UniProt Q8NEV4 (whole entry, looked up): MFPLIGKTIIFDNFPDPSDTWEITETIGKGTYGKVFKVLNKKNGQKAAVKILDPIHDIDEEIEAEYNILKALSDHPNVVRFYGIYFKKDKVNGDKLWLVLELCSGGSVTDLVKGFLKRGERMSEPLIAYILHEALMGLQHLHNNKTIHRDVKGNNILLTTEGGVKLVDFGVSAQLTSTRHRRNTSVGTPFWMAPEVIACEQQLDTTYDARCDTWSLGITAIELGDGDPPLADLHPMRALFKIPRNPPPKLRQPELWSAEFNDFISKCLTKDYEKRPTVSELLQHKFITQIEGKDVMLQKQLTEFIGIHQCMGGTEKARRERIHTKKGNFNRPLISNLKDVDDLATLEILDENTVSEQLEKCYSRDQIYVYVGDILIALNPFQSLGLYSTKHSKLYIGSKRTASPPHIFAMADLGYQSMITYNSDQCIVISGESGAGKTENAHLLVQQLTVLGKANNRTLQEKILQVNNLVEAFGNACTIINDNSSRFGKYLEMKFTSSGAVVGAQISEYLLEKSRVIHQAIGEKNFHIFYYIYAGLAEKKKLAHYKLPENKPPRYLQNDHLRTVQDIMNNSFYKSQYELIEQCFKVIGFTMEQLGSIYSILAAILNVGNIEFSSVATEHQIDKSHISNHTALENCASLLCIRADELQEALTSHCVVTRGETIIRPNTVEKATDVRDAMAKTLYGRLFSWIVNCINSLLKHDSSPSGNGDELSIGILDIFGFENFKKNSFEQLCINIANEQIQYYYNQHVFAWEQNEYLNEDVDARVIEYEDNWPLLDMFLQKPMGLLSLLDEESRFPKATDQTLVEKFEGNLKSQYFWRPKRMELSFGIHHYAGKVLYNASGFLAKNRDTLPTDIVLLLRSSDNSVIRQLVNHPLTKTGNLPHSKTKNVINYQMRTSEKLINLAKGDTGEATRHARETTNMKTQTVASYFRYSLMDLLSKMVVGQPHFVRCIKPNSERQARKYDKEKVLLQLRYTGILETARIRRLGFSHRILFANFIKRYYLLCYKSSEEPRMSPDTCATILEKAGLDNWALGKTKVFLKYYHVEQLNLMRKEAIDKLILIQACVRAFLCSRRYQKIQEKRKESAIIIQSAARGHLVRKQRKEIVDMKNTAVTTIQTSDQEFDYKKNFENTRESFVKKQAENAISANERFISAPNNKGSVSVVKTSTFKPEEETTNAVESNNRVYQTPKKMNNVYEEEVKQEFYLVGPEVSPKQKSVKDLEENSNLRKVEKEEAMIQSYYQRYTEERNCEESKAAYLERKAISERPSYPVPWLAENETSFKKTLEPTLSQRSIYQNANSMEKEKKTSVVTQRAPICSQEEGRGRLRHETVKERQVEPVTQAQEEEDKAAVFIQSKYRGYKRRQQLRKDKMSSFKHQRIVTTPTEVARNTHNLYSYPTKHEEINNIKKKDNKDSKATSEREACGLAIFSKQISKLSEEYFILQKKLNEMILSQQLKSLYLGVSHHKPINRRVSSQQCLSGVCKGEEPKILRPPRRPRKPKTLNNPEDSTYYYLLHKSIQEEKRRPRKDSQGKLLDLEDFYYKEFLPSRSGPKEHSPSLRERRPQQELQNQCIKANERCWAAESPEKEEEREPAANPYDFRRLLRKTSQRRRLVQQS
Sequence of UniProt Q9H1R3 (whole entry, looked up): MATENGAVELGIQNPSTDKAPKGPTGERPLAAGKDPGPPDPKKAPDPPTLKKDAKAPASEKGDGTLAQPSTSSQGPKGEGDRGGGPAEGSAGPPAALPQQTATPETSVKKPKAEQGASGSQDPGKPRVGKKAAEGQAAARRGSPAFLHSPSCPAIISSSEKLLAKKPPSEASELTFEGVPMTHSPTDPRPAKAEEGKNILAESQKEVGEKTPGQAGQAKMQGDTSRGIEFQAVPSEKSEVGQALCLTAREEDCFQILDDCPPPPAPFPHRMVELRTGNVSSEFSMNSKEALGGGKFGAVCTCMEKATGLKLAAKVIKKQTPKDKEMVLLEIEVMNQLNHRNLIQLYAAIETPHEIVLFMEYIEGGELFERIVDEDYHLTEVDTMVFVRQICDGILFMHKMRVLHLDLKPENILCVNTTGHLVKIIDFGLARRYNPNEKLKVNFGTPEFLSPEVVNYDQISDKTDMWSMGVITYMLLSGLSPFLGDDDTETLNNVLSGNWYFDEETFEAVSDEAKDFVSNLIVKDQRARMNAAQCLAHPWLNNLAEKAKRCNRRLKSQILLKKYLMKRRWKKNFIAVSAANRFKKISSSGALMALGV

Block 1 — observed: enzyme activity; tested at: 5 µM; measurement: remaining activity
SMILES: O=C(Nc1cnn(-c2csc(C(=O)NC3COC3)c2)c1)Nc1ccccc1Cl
SNF-related serine/threonine-protein kinase (SNRK, Homo sapiens, UniProt Q9NRH2); relative to: untreated control: 90.6%
Fibroblast growth factor receptor 3 (FGFR3, Homo sapiens, UniProt P22607); relative to: untreated control: 84.9%
Mitogen-activated protein kinase kinase kinase 12 (MAP3K12, Homo sapiens, UniProt Q12852); relative to: untreated control: 92.4%
Serine/threonine-protein kinase 32B (STK32B, Homo sapiens, UniProt Q9NY57); relative to: untreated control: 122%
Glycogen synthase kinase-3 alpha (GSK3A, Homo sapiens, UniProt P49840); relative to: untreated control: 97%
Serine/threonine-protein kinase N3 (PKN3, Homo sapiens, UniProt Q6P5Z2); relative to: untreated control: 92.5%
Tyrosine-protein kinase BTK (BTK, Homo sapiens, UniProt Q06187); relative to: untreated control: 91.6%
Myosin light chain kinase 2, skeletal/cardiac muscle (MYLK2, Homo sapiens, UniProt Q9H1R3); relative to: untreated control: 89.2%
Myosin-IIIa (MYO3A, Homo sapiens, UniProt Q8NEV4); inhibitor: 94.5%
Dual specificity tyrosine-phosphorylation-regulated kinase 2 (DYRK2, Homo sapiens, UniProt Q92630); relative to: untreated control: 87.1%

Block 2 — observed: cell-free assay; tested at: 10 µM; measurement: inhibition
Target: 5-hydroxytryptamine receptor 5A (HTR5A, Homo sapiens, UniProt P47898)
Sequence of UniProt P47898 (whole entry, looked up): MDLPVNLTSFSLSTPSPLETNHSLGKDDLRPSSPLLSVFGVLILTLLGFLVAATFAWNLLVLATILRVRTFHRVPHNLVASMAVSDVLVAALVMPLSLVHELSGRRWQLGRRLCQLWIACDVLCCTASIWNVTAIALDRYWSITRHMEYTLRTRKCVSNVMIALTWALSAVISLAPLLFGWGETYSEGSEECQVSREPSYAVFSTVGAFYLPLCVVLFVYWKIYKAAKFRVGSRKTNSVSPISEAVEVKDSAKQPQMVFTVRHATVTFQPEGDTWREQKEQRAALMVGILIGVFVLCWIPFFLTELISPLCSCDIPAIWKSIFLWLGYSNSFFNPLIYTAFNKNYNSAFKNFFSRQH
C[C@@H]1CN(c2cc(-c3nn(C)c4ccc(OC5(C)CC5)cc34)ncn2)C[C@H](C)O1: -6.76%
FC(F)(F)c1ccc2c(c1)nc(-c1cccnc1)n2C1CC1: -2.64%
CC(=O)Nc1c(C(C)=O)c(=O)n(C)c2nc(-c3ccc(Cl)cc3Cl)c(-c3ccc(Cl)cc3)cc12: 14.3%
Cc1ccccc1Oc1cc(-n2c(=O)cc(C(F)(F)F)[nH]c2=O)c2ccccc2c1Cl: 5.61%
Cc1c(N2CCCC2)nc2ccc(Br)cc2c1C(=O)NC[C@H](CCC(=O)O)c1ccccc1Cl: -5.32%
N#Cc1ccc(Nc2ccc3[nH]c(=O)[nH]c3c2)c(Cl)c1: -7.6%
CCOCCn1cc(C(=O)Nc2ccc(-n3nc(-c4cccnc4)cc3C(F)(F)F)cn2)ccc1=O: -16.3%
COc1ccc2c(c1)O[C@H](c1ccc(OC)c(OC)c1)C[C@@H]2NC(=O)C1(c2ccc3c(c2)OC(F)(F)O3)CC1: -7.95%
O[C@]1(C(F)(F)F)CCCC[C@H]1Nc1ccc(F)cc1: -7.74%
Cc1ccc(-c2cnc([C@@]3(O)CC[C@H](C(=O)O)C(C)(C)C3)s2)cc1Nc1cccc(C(F)(F)F)n1: -4.56%

Block 3 — mode: agonist; measurement: EC50
Target: Beta-1 adrenergic receptor (ADRB1, Homo sapiens, UniProt P08588)
Sequence of UniProt P08588 (whole entry, looked up): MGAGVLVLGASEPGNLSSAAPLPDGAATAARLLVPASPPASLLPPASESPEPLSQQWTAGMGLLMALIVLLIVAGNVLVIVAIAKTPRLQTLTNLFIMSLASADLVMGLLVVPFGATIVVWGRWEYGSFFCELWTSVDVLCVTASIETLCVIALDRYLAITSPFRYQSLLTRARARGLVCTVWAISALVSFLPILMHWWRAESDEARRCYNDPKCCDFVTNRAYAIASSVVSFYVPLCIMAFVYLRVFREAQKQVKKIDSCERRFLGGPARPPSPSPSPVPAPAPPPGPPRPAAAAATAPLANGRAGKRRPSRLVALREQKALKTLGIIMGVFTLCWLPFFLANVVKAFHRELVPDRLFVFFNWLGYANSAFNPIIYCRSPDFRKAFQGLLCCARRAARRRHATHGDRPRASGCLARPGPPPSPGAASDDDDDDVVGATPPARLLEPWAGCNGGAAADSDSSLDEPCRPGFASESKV
COCc1cc(NCC(O)COc2ccc(Cl)c(C)c2)ncn1 (stereo not shown): 8.91 µM
Cc1noc2c(-c3ccsc3)cc(-c3cccnc3)nc12: ≥ 100 µM
c1cc(-c2cc3c(ccn3Cc3ccncc3)c(N3CCOCC3)n2)c2[nH]ncc2c1: ≥ 100 µM
COc1ccccc1N1CCN(CC[C@H]2CN(C(=O)NC(C)C)CC[C@H]2CC(=O)O)CC1: 28.2 µM
O=C(Nc1ccc([C@@H](O)[C@H]2COCC(=O)N2CCCc2ccccc2)cc1)C1CC1: ≥ 100 µM
CCOc1ccc(C(=O)N2CCN(c3ccccc3OC)CC2)cc1: ≥ 100 µM

Block 4 — observed: enzyme activity; mode: inhibitor; tested at: 0.5 µM; relative to: control; measurement: remaining activity
Target: Serine/threonine-protein kinase 16 (STK16, Homo sapiens, UniProt O75716)
Sequence of UniProt O75716 (whole entry, looked up): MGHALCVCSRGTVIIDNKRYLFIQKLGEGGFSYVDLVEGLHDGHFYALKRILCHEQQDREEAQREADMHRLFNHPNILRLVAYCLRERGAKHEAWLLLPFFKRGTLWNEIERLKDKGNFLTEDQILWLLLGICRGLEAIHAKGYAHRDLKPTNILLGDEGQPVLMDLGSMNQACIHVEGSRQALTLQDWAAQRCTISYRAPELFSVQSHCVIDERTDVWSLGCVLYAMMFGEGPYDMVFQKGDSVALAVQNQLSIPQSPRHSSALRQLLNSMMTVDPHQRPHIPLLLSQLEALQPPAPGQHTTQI
COc1cc2nccc(Oc3ccc(NC(=S)NC(=O)c4ccccc4C)cc3)c2cc1OC: 101%
O=S(=O)(c1cccc2cnccc12)N1CCCNCC1: 91.7%
Nc1ncnc2n[nH]c(Nc3ccc(F)cc3)c12: 108%
O=C1NC(=O)C(c2cn(CCCn3ccnc3)c3ccccc23)=C1Nc1ccccc1: 110%
COc1ccc(C(=O)Nc2sc3c(c2C(N)=O)CCCC3)cc1OC: 106%
COc1ccc(OC)c2c(=S)c3ccccc3[nH]c12: 90%
Cc1nc(-c2ccccc2)c(-c2ccncc2)o1: 109%
CCOC(=O)c1c(C)[nH]c(/C=C2\C(=O)Nc3ccccc32)c1C: 88.3%
Cn1c2ccccc2c2c3c(c4c5ccccc5n(CCC#N)c4c21)CNC3=O: 81.1%
Cn1sc(=O)n(Cc2ccccc2)c1=O: 105%
O=C1NC(=O)C(c2cn(CCCO)c3ncccc23)=C1c1cnccn1: 90.3%
Oc1ccc(-c2nc(-c3ccncc3)c(-c3ccc(F)cc3)[nH]2)cc1: 111%
N#CC(C#N)=C(N)/C(C#N)=C/c1ccc(O)cc1: 109%
CC(C)[C@H](CO)Nc1nc(Nc2cc(N)cc(Cl)c2)c2ncn(C(C)C)c2n1: 74%
